Measured values collected from several papers.
Parts stem from different laboratories: compare values within a part only. “And” joins repeats or separate records; there may be more than shown.

Set 1
Cell line: mouse MPNST tumor cells
Method: high-content nuclear imaging
Measured: cell number
Concentration: 10 µM
Time: 12 h
Setting: mean of 2 replicates
Relative to: plate mean
Direction: higher = more cells
The nuclei count of O=C1NCC2(CCN(CCc3ccccc3)CC2)O1 is reported as 1.36 z-score.
For COc1cc(C(=O)NC2CCCNC2)cc(OC)c1OC (stereo not drawn), the nuclei count was 1.3 z-score.
For CCn1cc(C(=O)O)c(=O)c2cc(F)c(N3CCNCC3)nc21, the nuclei count was 1.31 z-score and 1.23 z-score.
CCCCC(CC)CNC(=N)NC(=N)NCCCCCCNC(=N)NC(=N)NCC(CC)CCCC (stereo not drawn) has a nuclei count of -4.37 z-score.
With N=C(N)SCc1ccc(B(O)O)cc1 the nuclei count was -1.34 z-score.
COc1ccc(CC2NCCc3c2[nH]c2ccc(C)cc32)cc1OC (stereo not drawn) has a nuclei count of 2.39 z-score.
For COc1cc(C(=O)N2CCOCC2)cc(OC)c1OC, the nuclei count was 1.47 z-score.
With CCOC(=O)C1=C(N2CCCCC2)C2(CC1=O)C(=O)N=C1C(C)=CC=CN12 (stereo not drawn) the nuclei count was 2.4 z-score.
With Oc1ccc(-c2nc(-c3ccc(F)cc3)c(-c3ccncc3)[nH]2)cc1 the nuclei count was -1.75 z-score.
COc1cc(NC(=O)c2cccc(-n3cc(NC(=O)Nc4cccc(C)c4)cn3)c2)cc(OC)c1OC has a nuclei count of -3.45 z-score.

Set 2
Target: Alpha-1A adrenergic receptor (ADRA1A, Homo sapiens, UniProt P35348)
Observed: ligand displacement
Concentration: 10 µM
Target sequence (P35348 1-466): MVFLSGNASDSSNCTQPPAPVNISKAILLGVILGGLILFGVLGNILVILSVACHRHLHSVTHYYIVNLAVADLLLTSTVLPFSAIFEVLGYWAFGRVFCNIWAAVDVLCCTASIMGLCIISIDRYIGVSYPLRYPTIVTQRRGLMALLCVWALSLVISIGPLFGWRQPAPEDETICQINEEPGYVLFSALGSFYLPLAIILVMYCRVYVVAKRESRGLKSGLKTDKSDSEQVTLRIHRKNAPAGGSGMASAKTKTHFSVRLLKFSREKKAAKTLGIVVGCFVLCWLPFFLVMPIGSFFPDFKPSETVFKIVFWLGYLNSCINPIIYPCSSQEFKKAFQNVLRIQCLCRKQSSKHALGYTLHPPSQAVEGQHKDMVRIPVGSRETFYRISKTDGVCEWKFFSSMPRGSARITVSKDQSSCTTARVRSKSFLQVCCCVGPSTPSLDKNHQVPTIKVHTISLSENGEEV
The inhibition of O=C(N[C@H]1CCCCC/C=C\C2C[C@@]2(C(=O)O)NC(=O)[C@@H]2C[C@@H](Oc3ccncc3)CN2C1=O)OC1CCCC1 (stereo partly drawn) is reported as 25.7%.
For Cc1ncc(-c2cc(Cl)ccc2F)cc1-n1c(=O)n(CC(N)=O)c2ccccc21, the inhibition was 0.25%.
O=C(NCCCC1CCCCC1)c1ccc(CNC(=O)c2cnn(-c3ccccc3)c2C(F)(F)F)cc1 has an inhibition of 17.9%.
CNC(=O)Nc1ccc2c(c1)CC[C@]21OC(=O)N(CC(=O)N(Cc2ccc(F)cc2)[C@@H](C)C(F)(F)F)C1=O gave an inhibition of -11.3%.
The inhibition of CN([C@@H]1CCc2c(CC(=O)O)c3ccccc3n2C1)S(=O)(=O)c1ccc(F)cc1 is reported as -4.89%.
NS(=O)(=O)c1cc(NC(=O)Cc2ccccc2)ccc1Oc1cccc(Cl)c1 has an inhibition of 5.04%.
O=c1nc(-c2ccccn2)sc2ccccc12 gave an inhibition of -12.5%.
Cc1c(NC(=O)c2cc(C(N)=O)nc3cc(F)ccc23)c(C(F)(F)F)nn1Cc1ccc(C#N)cc1 has an inhibition of -5.75%.
With CC1CCN(c2ccnc(NCc3cn(C)cn3)n2)CC1 the inhibition was 15.4%.
CN1CCN(c2cnc3c(C4CCN(C(=O)c5ccc(OC(F)(F)F)cc5N)CC4)ncnc3c2)CC1 has an inhibition of 1.11%.
Cc1noc([C@H]2C[C@@H](c3ccc(C(F)(F)F)cc3)CN(C(=O)N3CCS(=O)(=O)C3)C2)n1 gave an inhibition of -4.12%.
The inhibition of Cc1ccc(-c2cnc([C@@]3(O)CC[C@H](C(=O)O)C(C)(C)C3)s2)cc1Nc1cccc(C(F)(F)F)n1 is reported as -13.7%.
The inhibition of CCC(=NO)C(C)=Cc1ccc(F)c(C)c1 is reported as -8.35%.
With c1ccc(N2CCN(Cc3nc4ccccc4[nH]3)CC2)nc1 the inhibition was 6.04%.
With CCC(F)(F)c1cc(N2CCC(S(C)(=O)=O)CC2)nc2sc(C(N)=O)c(N)c12 the inhibition was 18.9%.
Cn1cc(Cl)c2c(Oc3c(F)cc(Nc4cc(Cl)nc(N)n4)cc3F)ccnc21 has an inhibition of -5.31%.
For Cn1nc(C(=O)NCc2ccc(C(=O)O)cc2)cc1-c1ccc2[nH]ccc2c1, the inhibition was -13.8%.

Set 3
Organism: Sarcocystis neurona
Observed: parasite activity
Concentration: 10 µM
Time: 96 h
For C#C[C@]1(O)CC[C@H]2[C@@H]3[C@H](C)CC4=C(CCC(=O)C4)[C@H]3CC[C@@]21C, activity class read “inactive”.
C[C@H]1O[C@H](O[C@H]2[C@H](O)[C@@H](O)[C@@H](O[C@H]3[C@H](O)[C@@H](O)C(O)O[C@@H]3CO)O[C@@H]2CO)[C@H](O)[C@@H](O)[C@@H]1N[C@H]1C=C(CO)[C@@H](O)[C@H](O)[C@H]1O (stereo partly drawn) — result for activity class: “inactive”.
CC(C)(C(=O)O)c1ccc(C(O)CCCN2CCC(C(O)(c3ccccc3)c3ccccc3)CC2)cc1 (stereo not drawn) — result for activity class: “inactive”.
For CCCCC(=O)N(Cc1ccc(-c2ccccc2-c2nnn[nH]2)cc1)[C@H](C(=O)O)C(C)C, activity class read “inactive”.
CCCCN1CCCC1CNC(=O)c1cc(C#N)c2ccccc2c1OC (stereo not drawn) — result for activity class: “inactive”.
Under activity class, Cc1c(O)c(=O)ccn1C is recorded as “inactive”.
For CN(C)CC[C@@H](c1ccc(Br)cc1)c1ccccn1, activity class read “inactive”.
Under activity class, CCOC(=O)C1=C(C)NC(C)=C(C(=O)OC)C1c1cccc([N+](=O)[O-])c1 (stereo not drawn) is recorded as “inactive”.
COc1cccc2c1C(=O)c1c(O)c3c(c(O)c1C2=O)C[C@@](O)(C(C)=O)C[C@@H]3O[C@H]1C[C@H](N)[C@H](O)[C@H](C)O1 — result for activity class: “inactive”.

Set 4
Target: Calcium/calmodulin-dependent protein kinase type II subunit alpha (CAMK2A, Homo sapiens, UniProt Q9UQM7)
UniProt Q9UQM7, sequence (whole entry, looked up): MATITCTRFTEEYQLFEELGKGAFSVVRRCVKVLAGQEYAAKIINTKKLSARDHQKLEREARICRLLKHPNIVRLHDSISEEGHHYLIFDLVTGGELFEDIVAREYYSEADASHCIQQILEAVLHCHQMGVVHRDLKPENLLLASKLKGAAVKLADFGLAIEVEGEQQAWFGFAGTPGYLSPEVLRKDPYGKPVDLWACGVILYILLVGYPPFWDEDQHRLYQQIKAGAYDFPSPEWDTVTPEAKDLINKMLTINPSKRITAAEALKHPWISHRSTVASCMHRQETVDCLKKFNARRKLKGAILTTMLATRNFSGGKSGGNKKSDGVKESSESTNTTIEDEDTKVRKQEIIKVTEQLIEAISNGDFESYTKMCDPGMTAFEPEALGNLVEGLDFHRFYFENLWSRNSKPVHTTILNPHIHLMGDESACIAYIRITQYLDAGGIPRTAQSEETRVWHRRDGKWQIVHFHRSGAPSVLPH
Observed: enzyme activity
Action: inhibitor
Concentration: 10 µM
O=C(O)CCCCCCC[C@@H](O)[C@@H](O)CCCCCCO has an inhibition of -12%.
For C[C@@H]1CC[C@]2(C(=O)O)CC[C@]3(C)C(=CC[C@@H]4[C@@]5(C)C[C@@H](O)[C@H](O)C(C)(C)[C@@H]5CC[C@]43C)[C@@H]2[C@]1(C)O, the inhibition was 4%.
With O=C1N[C@@H]2[C@@H](O)[C@@H](O)[C@H](O)[C@@H](CO)N2C1=O the inhibition was -1%.
NCc1ccc(S(N)(=O)=O)cc1 has an inhibition of 0%.
CC1(C)CC[C@]2(C(=O)O[C@@H]3O[C@H](CO)[C@@H](O)[C@H](O)[C@H]3O)CC[C@]3(C)C(=CC[C@@H]4[C@@]5(C)CC[C@H](O[C@@H]6O[C@H](C(=O)O)[C@@H](O)[C@H](O)[C@H]6O[C@@H]6O[C@H](CO)[C@@H](O)[C@H](O)[C@H]6O)C(C)(C)[C@@H]5CC[C@]43C)[C@@H]2C1 has an inhibition of -18%.
CC[C@H](C)C(=O)O[C@H]1CCC=C2C=C[C@H](C)[C@H](CC[C@@H]3C[C@@H](O)CC(=O)O3)[C@H]21 has an inhibition of -17%.
CCCCCCCCCCCCCCCCCCCCC has an inhibition of -3%.
The inhibition of C/C=C/C(=O)O is reported as -38%.
For Cn1c(=O)[nH]c2ncn(C)c2c1=O, the inhibition was -2%.

Repeated from above (set 4):
NCc1ccc(S(N)(=O)=O)cc1 has an inhibition of 0%.
For Cn1c(=O)[nH]c2ncn(C)c2c1=O, the inhibition was -2%.
